# Experimental data gathered from unrelated publications.
# Compare with care: the assays were run in different laboratories. ± gives the spread as reported.
Structure (SMILES),cell line,assay,conditions,how to read,quantity,result
Cc1cc(Nc2ncc(Cl)c(Nc3ccccc3S(=O)(=O)C(C)C)n2)c(OC(C)C)cc1C1CCNCC1,CLB-GE,"phosphoproteomics LC-MS/MS, refers to: MAPK1 phosphorylation","200 nM, 60 min",baseline: untreated,log2 fold change,-1.6
CC(C)NCC(O)c1ccc(O)c(O)c1 (stereo not drawn),mouse ventricular cardiomyocytes,,"dose not given, 0.115 s",,sarcomere length,1.65 µm
CCn1cc(-c2cc(Cn3ccoc3=N)cc3c2CCN([C@@H](C)c2cc(OC)ccn2)C3=O)c(C(F)(F)F)n1,G-401,"cell growth, inhibitor",120 h,,EC50,0.0834 µM
Cn1cc(-c2ccc(-c3cncc(Cl)c3N3CCC4(CCNC4=O)CC3)cc2)cn1,COLO 205,"gene expression, microarray, refers to: POU2AF1 (BOB1) mRNA","concentration not given, 6 h",baseline: untreated cells,log2 fold change,-4.11
CCn1cc(-c2cc(Cn3ccnc3)cc3c2CCN([C@H](c2cc(OC)ccn2)C2CC2)C3=O)c(C(F)(F)F)n1,SNU-398,"cell growth, inhibitor",120 h,,EC50,3.25 µM
CC1(C)CCC(CN2CCN(c3ccc(C(=O)NS(=O)(=O)c4ccc(NCC5CCOCC5)c([N+](=O)[O-])c4)c(Oc4cnc5[nH]ccc5c4)c3)CC2)=C(c2ccc(Cl)cc2)C1,THP-1,"annexin V/PI flow cytometry, refers to: annexin V-/PI-","0.8 µM, 24 h",,viable cells,94.1%
COc1cnc2cccc(N3CCc4c(cc(Cn5ccnc5C)cc4-c4cn(C)nc4C(F)(F)F)C3=O)c2c1,JHOM1,cell growth,120 h,,EC50,> 30 µM
CC/C(=N\NC(=O)NCc1cccc(O)c1)c1ccc(O)c(C)c1O,SK-OV-3,"Western blot, refers to: phospho-YAP","10 µM, 3 h, 2D culture, unit not given",baseline: total YAP,protein level,0.24 ± 0.04
O=C(/C=C/C=C/C=C/C1CCCCC1)NC1=C[C@@](O)(/C=C/C=C/C=C/C(=O)NC2=C(O)CCC2=O)[C@@H]2O[C@@H]2C1=O,NCI-H2171,"cell growth, CellTiter-Glo",78 h,,GI50,17.5 µM

# A few entries again:
Structure (SMILES),cell line,assay,conditions,how to read,quantity,result
CC/C(=N\NC(=O)NCc1cccc(O)c1)c1ccc(O)c(C)c1O,SK-OV-3,"Western blot, refers to: phospho-YAP","10 µM, 3 h, 2D culture, unit not given",baseline: total YAP,protein level,0.24 ± 0.04
